Experimental data of several laboratories.
Parts stem from different laboratories: compare values within a part only.
Sequence of UniProt P54764 (whole entry, looked up): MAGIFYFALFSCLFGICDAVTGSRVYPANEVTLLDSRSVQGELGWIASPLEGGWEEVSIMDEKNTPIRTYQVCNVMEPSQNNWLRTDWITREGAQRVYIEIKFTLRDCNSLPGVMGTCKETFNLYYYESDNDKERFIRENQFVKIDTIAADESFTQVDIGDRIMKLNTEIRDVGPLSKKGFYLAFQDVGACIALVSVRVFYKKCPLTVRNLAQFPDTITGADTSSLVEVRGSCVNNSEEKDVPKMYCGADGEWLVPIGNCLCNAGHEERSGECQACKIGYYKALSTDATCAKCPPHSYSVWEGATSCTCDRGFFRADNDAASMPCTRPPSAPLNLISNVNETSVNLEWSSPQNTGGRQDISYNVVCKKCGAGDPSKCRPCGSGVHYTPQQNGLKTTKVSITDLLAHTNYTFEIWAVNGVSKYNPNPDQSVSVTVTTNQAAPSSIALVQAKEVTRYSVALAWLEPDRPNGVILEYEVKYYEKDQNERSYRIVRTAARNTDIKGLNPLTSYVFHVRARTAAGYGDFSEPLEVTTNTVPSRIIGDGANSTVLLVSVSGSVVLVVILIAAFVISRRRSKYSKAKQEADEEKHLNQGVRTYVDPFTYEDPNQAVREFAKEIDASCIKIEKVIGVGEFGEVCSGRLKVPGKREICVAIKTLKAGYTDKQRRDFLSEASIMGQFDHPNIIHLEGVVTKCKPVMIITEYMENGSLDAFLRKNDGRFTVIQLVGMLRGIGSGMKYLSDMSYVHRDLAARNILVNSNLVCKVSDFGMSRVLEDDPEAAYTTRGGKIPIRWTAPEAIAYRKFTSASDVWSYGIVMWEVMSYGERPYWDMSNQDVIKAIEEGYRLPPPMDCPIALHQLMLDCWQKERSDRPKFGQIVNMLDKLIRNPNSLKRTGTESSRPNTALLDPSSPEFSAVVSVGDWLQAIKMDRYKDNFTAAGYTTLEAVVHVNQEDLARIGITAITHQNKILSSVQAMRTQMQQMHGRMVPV
Sequence of UniProt Q02779 (whole entry, looked up): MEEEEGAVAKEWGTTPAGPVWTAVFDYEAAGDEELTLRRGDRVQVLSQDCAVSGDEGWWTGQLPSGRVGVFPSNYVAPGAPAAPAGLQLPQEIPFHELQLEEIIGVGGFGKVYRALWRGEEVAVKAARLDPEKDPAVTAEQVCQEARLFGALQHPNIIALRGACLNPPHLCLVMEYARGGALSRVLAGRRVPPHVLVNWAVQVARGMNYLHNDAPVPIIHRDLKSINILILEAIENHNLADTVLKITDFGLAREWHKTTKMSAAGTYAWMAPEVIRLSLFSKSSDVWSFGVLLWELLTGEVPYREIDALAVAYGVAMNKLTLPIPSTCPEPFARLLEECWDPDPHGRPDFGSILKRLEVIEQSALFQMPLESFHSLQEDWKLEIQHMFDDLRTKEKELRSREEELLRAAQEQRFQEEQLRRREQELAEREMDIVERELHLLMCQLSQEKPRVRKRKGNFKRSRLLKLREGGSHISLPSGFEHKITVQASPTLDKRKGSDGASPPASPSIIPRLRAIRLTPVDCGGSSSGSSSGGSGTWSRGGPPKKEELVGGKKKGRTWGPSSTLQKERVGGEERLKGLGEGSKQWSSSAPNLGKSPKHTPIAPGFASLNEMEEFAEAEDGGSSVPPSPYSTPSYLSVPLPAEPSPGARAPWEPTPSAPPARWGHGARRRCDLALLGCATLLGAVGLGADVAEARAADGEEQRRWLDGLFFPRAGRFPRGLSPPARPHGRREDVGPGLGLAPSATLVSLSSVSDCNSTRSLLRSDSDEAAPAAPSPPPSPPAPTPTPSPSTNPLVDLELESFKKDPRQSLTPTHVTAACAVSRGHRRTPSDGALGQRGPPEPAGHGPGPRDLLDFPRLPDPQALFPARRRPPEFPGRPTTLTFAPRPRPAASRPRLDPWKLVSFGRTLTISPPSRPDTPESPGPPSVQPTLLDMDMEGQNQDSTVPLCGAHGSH
Sequence of UniProt O15530 (whole entry, looked up): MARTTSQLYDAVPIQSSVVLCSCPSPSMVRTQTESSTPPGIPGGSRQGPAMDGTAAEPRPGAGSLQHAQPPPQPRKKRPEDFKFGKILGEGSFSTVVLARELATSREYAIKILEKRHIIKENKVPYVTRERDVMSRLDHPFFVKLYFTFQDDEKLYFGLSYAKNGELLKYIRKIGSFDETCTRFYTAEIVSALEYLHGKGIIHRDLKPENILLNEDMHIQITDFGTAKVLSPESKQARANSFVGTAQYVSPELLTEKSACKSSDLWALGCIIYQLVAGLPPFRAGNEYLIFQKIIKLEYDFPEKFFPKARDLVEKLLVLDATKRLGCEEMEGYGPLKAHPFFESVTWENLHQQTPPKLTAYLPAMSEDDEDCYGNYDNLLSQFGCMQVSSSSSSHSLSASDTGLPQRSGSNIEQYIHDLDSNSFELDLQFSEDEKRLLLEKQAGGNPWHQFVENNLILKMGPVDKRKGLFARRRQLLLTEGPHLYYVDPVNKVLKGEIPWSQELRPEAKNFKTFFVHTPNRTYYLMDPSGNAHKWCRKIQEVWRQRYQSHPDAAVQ
Sequence of UniProt O43353 (whole entry, looked up): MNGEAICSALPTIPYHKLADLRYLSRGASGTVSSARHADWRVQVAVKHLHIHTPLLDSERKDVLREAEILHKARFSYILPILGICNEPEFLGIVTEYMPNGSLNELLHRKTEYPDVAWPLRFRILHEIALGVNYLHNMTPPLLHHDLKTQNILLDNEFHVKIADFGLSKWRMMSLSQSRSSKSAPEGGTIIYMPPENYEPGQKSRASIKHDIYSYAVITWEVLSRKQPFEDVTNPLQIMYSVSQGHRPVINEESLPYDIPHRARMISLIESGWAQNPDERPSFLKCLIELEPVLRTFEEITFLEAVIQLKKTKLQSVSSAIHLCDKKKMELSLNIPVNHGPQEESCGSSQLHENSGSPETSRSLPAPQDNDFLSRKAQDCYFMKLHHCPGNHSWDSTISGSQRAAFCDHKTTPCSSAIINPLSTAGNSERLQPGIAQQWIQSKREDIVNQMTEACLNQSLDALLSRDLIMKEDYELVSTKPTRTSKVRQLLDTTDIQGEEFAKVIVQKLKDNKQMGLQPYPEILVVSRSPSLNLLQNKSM
Sequence of UniProt P29320 (whole entry, looked up): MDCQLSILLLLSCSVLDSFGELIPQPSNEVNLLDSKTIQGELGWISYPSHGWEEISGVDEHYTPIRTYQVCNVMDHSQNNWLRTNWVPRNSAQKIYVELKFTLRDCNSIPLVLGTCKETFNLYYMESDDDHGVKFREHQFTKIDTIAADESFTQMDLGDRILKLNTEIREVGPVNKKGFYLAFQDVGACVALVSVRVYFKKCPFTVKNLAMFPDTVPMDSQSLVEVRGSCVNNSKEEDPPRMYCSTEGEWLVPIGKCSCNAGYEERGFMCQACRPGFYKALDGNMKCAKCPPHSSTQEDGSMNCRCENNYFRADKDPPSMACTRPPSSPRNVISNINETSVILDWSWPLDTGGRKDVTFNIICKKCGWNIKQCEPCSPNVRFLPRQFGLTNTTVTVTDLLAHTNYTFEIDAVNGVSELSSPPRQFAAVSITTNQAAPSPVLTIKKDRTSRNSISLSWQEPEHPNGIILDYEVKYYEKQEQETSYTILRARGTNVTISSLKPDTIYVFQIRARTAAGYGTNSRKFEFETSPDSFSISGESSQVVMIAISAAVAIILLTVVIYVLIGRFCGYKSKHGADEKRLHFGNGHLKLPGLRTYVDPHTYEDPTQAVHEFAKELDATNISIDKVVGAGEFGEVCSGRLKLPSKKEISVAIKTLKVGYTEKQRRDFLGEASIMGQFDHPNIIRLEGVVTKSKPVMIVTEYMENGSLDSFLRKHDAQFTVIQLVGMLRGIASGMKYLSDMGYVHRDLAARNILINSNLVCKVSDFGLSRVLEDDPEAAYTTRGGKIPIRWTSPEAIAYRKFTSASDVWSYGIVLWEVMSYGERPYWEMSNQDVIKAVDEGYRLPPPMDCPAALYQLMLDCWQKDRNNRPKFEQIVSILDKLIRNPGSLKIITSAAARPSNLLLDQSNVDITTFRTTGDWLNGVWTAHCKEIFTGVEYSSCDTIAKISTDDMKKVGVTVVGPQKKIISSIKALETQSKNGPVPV
Sequence of UniProt O75914 (whole entry, looked up): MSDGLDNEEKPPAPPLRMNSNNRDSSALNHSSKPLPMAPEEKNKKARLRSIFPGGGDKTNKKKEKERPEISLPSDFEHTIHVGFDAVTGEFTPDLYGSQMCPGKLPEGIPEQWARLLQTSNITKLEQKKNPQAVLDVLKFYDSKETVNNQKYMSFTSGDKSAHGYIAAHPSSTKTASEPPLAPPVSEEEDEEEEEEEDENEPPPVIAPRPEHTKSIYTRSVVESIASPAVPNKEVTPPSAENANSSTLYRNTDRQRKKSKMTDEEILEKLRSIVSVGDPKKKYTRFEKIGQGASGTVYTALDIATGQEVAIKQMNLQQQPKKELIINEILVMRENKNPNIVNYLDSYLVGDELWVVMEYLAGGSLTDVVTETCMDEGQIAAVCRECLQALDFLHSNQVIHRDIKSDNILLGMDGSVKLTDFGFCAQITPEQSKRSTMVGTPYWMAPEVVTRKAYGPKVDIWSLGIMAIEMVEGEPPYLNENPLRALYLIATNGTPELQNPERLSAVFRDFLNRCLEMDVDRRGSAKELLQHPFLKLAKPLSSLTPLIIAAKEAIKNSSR
Sequence of UniProt O75716 (whole entry, looked up): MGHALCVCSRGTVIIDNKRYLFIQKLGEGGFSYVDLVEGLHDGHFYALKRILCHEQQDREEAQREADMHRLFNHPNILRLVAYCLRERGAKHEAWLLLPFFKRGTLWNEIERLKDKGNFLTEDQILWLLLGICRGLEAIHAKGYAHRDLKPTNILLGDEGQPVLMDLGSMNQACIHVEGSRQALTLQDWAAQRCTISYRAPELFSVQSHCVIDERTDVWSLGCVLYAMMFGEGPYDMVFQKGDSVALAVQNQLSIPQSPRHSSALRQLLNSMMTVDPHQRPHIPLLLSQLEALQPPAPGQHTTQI

Series 1
Technique: PRP chromatography estimate
Medium: 1,9-decadiene/PBS
pH: 7.4
| Structure (SMILES) | logD |
| --- | --- |
| CC(C)C[C@@H]1NC(=O)[C@H](CC(C)C)NC(=O)[C@@H](CC(C)C)NC(=O)[C@H](CC(C)C)NC(=O)[C@H](C(C)C)NC(=O)[C@H](Cc2cscn2)NC(=O)[C@H](C)NC1=O | -0.115 |
| CC(C)C[C@@H]1NC(=O)[C@H](CC(C)C)NC(=O)[C@@H](CC(C)C)NC(=O)[C@@H](CC(C)C)NC(=O)[C@H](C)NC(=O)[C@H](CC(C)C)NC(=O)[C@@H](CC(C)C)NC1=O | 1.61 |
| CC(C)C[C@@H]1NC(=O)[C@H](CC(C)C)NC(=O)[C@H](CC(C)C)NC(=O)[C@H](CC(C)C)NC(=O)[C@H](C(C)C)NC(=O)[C@H](C)NC(=O)[C@H](C)NC1=O | -0.87 |
| CC(C)C[C@@H]1NC(=O)[C@H](C(C)C)NC(=O)[C@H](CCC(=O)N2CCCC2)NC(=O)[C@H](CCC(=O)N2CCCC2)NC(=O)[C@@H](CCC(=O)N2CCCC2)NC(=O)[C@H](CC(C)C)NC(=O)[C@@H](CC(C)C)NC1=O | -2.19 |
| CC(C)C[C@@H]1NC(=O)[C@H](C(C)C)NC(=O)[C@H](CC(C)C)NC(=O)[C@@H](CC(C)C)NC(=O)[C@H](CC(C)C)NC(=O)[C@@H](C)NC(=O)[C@@H](CC(C)C)NC1=O | 0.769 |

Series 2
Host: human
Medium: microsomes or S9
Tested at: 2 µM
Time: 0.5 h
| SMILES | remaining compound [%] |
| --- | --- |
| COc1cccc(C2CC(c3cccs3)=NN2S(C)(=O)=O)c1OC (centres unmarked) | 0.201 |
| CCCNc1ccc2ncc(-c3ccc4[nH]ncc4c3)n2n1 | 31.2 |
| CC1(C)CC(S(=O)(=O)CC2(C)CC(C3CCCCC3)=NO2)=NO1 (centres unmarked) | 4.95 |
| CC(C)(C)NS(=O)(=O)c1ccc(NC(=O)C2c3ccccc3Oc3ccccc32)cc1 | > 100 |
| O=C(Nc1ccc(F)cc1)Nc1cc2ccc(O)cc2s1 | 35.1 |
| Oc1cc(CCn2cnc(-c3ccccc3)c2-c2cccc3cccnc23)ncn1 | 54 |
| Clc1cccnc1N1CCCC(Cn2ccnc2)C1 (centres unmarked) | 84.7 |
| Oc1cccc(-c2cn(Cc3ccc4sccc4c3)nn2)c1 | 22.4 |
| O=C(CCCc1ccc2c(c1)-c1ccccc1C2)NC1CCCNC1=O (centres unmarked) | 63.1 |
| CC(C)n1nccc1C1CC(=O)Nc2cccc3c2c1cn3Cc1ccccc1 (centres unmarked) | 98.6 |
| Clc1ccc(-c2noc(-c3ccc(Nc4ccc5c(c4)OCCO5)nn3)n2)cc1 | 70.7 |
| COCSc1c(C(O)(CF)c2cnn(C)c2SCOC)cnn1C | 65.6 |

Series 3
SMILES: COc1cc2c(cc1OC)-c1[nH]nc(Nc3cccc(F)c3)c1C2
Observed: enzyme activity
Action: inhibitor
Tested at: 0.5 µM
Baseline: control
| target | remaining activity [%] |
| --- | --- |
| WNK3 (Homo sapiens, UniProt Q9BYP7) | 104 |
| STK17A (Homo sapiens, UniProt Q9UEE5) | 87 |
| RPS6KA6 (Homo sapiens, UniProt Q9UK32) | 93.6 |
| STK16 (Homo sapiens, UniProt O75716) | 96.8 |
| MAPKAPK3 (Homo sapiens, UniProt Q16644) | 90.8 |
| Cyclin-dependent kinase 6, with cyclin D3 (CDK6, Homo sapiens, UniProt Q00534) | 99.5 |
| PHKG1 (Homo sapiens, UniProt Q16816) | 89 |
| HIPK4 (Homo sapiens, UniProt Q8NE63) | 90 |
| EPHA4 (Homo sapiens, UniProt P54764) | 93.3 |
| Cyclin-dependent kinase 1, with cyclin B (CDK1, Homo sapiens, UniProt P06493) | 101 |
| HIPK2 (Homo sapiens, UniProt Q9H2X6) | 103 |
| PDPK1 (Homo sapiens, UniProt O15530) | 95.9 |
| AXL (Homo sapiens, UniProt P30530) | 96.1 |
| BLK (Homo sapiens, UniProt P51451) | 74.2 |
| MAP4K4 (Homo sapiens, UniProt O95819) | 55.5 |
| TSSK2 (Homo sapiens, UniProt Q96PF2) | 75.1 |
| CAMK2B (Homo sapiens, UniProt Q13554) | 101 |
| EPHB1 (Homo sapiens, UniProt P54762) | 100 |
| RPS6KA5 (Homo sapiens, UniProt O75582) | 96 |
| EPHB4 (Homo sapiens, UniProt P54760) | 95.3 |
| DYRK3 (Homo sapiens, UniProt O43781) | 84.4 |
| PRKACG (Homo sapiens, UniProt P22612) | 102 |

Series 4
SMILES: C[C@@H](c1cccc(C#N)c1)n1cc(Cl)cc(C(N)=O)c1=N
Technique: competition with immobilised ligand
Tested at: 1 µM
| target | observed | remaining binding [%] |
| --- | --- | --- |
| MAP3K1 (Homo sapiens, UniProt Q13233) | cell-free assay | 82 |
| MAP3K10 (Homo sapiens, UniProt Q02779) | cell-free assay | 77 |
| EGFR (Homo sapiens, UniProt P00533, G719S) | cell-free assay | 100 |
| DAPK2 (Homo sapiens, UniProt Q9UIK4) | cell-free assay | 100 |
| RIPK2 (Homo sapiens, UniProt O43353) | cell-free assay | 88 |
| NEK11 (Homo sapiens, UniProt Q8NG66) | cell-free assay | 92 |
| STK32C (Homo sapiens, UniProt Q86UX6) | cell-free assay | 100 |
| Tyrosine-protein kinase ABL1, non-phosphorylated (ABL1, Homo sapiens, UniProt P00519, F317I) | binding | 76 |
| GRK7 (Homo sapiens, UniProt Q8WTQ7) | cell-free assay | 82 |
| EPHA3 (Homo sapiens, UniProt P29320) | cell-free assay | 92 |
| PAK3 (Homo sapiens, UniProt O75914) | cell-free assay | 94 |
